Experimental data from different studies.
Numbered parts are unrelated; each lists some results of a single study. Changes are numbered by the printed parent chain.

Sample 1 — target: ATF7, bZIP domain (human); technique: DHFR protein complementation; sample: yeast; relative to: wild-type JUN-FOS pair; reading: higher = stronger binding
Setting: single substitutions, most at no-binding floor
Starting sequence: JUN, bZIP domain (human); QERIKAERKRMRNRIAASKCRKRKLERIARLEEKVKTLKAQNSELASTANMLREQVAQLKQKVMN; partner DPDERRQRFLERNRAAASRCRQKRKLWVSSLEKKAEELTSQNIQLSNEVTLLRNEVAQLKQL
| Substitution | binding fitness [natural log] |
| --- | --- |
| T37S | -0.876 |
| V35E | -1.57 |
| E44P | -1.5 |
| L52S | -1.44 |
| T48V | -0.949 |
| E33R | -1.15 |
| E32V | -0.886 |
| K39I | -0.97 |
| A40M | -0.991 |
| S47V | -0.799 |
| T37D | -0.884 |
| L38S | -1.6 |

Sample 2 — technique: RNA Bind-n-Seq; form: RNA; sample: in vitro; concentration: not given; relative to: input RNA pool; reading: higher = stronger binding
Target: RING finger protein unkempt homolog, zinc fingers 1-6, GST-SBP tag (UNK, Homo sapiens, UniProt Q9C0B0, residues 30-357)
Setting: RNA with constant flanks, human and mouse sites, ends assumed
Construct (chain): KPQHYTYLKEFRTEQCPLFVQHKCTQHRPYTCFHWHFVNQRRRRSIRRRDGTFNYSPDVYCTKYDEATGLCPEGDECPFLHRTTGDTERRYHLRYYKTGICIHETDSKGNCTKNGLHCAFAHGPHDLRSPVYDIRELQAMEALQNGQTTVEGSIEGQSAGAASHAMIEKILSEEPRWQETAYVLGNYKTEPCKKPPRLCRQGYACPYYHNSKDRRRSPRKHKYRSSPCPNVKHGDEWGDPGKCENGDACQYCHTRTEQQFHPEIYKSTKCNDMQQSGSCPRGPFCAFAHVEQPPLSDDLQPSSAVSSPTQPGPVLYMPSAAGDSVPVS
| Oligonucleotide | bound/input enrichment [ratio] |
| --- | --- |
| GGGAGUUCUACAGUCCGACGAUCAUGCAAGCUGAACUGAAUCGCCUCCAAGCAGAAAAUGAUGCUUCUAAAGAAGAAGUCAAAGAAGUUUUACAGGCCUUAGAGGAACUGGCUGUUAAUUAUGAUCAGAAGUCUCAGGAAGUUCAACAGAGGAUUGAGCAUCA | 0.0796 |
| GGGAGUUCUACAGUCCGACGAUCAUACAAGAUGCUCUAGGCAACUGUAUUGAUAUCAAUGAGUGUUUGAGUAUCAGUGCCCCGUGCCCUAUCGGGCAUACAUGCAUCAACACAGAGGGCUCCUACACGUGCCAGAAGAACGUGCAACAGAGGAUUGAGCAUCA | 0.126 |
| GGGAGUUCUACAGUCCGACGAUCCGGCGGGCUGUGGGGCCGUUUGCCUUUUCCUUACCUGGGCUGGAUAAACUCAUGGACUUGGCAGCUCAGGCUUGAGAAAAACACAAACUCAGAAGAAAGAUGGCGUUCGUUGCAACCCAGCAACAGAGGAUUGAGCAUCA | 0.0942 |
| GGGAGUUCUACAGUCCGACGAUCGAAAUAAAGAAAUUGUCAAGUAUCUGCUAAAUCAAGGGGCUGAUGUUGCUCUUCGAGCCAAAAAUGGGUACACGGCCUUUGACCUGGUGAUGCUGCUGAACGAUCCUGACACUGAACUUGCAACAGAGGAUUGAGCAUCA | 0.159 |
| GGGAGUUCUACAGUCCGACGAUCGAGCUUUUCUUACCUAUUCAAGGAAUACGUGCCUUUUUCUUAAAUGCUUUCAUUUAUUGAAAAAAAAAAAAAAUGCCCCCAAAGCACUAUGCUGGUCAUGAACUGCUUCAAAAUGUGGAGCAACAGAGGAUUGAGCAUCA | 0.279 |
| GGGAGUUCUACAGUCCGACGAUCGAUAUCACCCAGACACCGCCAGCAUACAUAAACGUGUUACCAGGUUUGCCCCAGUACACCAGCAUAUAUACACCCUUGGCCAGCCUUUCUCCUGAAUAUCAGCUACCAAGAUCAGUACCACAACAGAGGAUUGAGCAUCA | 0.291 |
| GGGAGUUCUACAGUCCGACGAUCGCACAUGGUUUGGGACUUGCACGUUCUGCCAUGGAGGAGUCUUCAGUGACAGUUGGCACAAUAGACGUUUCUUAUCUGCCCAGUUCAUCGGAAUACAGCCUUGGCCGAUGUAAACACACCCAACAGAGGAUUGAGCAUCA | 0.224 |
| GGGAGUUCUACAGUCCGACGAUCCCAUGGGGGUCUUGCUUAUGUGUGUCACCAGAGAGUGGAAGAGCUCAAAGGCCAUAACCCUUUACCUUCUCCAUGGAGGGACAGGCCUAAGGAAGAAUCAUUGCUGCUCUUUGAGGCAAUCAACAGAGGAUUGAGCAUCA | 0.171 |

Sample 3 — target: CCND1, cyclin fold, Cln2 fusion (human); technique: yeast growth competition, sequencing; sample: yeast; setting: weak parent motif; relative to: not given; reading: higher = stronger binding
Starting sequence: CDKN1B docking peptide (human); PSACRNLFGPVDH
| Substitution | normalised enrichment score |
| --- | --- |
| G9Y | 0.687 |
| D12P | 0.271 |
| G9S | 0.147 |
| S2Q | 0.183 |
| P10I | 0.406 |
| P10L | 0.614 |
| D12W | 0.604 |
| P1C | 0.317 |
| V11Y | 0.666 |
| V11I | 0.823 |
| F8H | 0.572 |
| R5A | 0.137 |
| N6S | 0.105 |
| P10N | 0.919 |
| S2W | -0.142 |
| P1F | 0.896 |

Sample 4 — technique: RNA Bind-n-Seq; form: RNA; sample: in vitro; concentration: 365 nM; relative to: no-protein control; reading: higher = stronger binding
Target: RNA binding protein fox-1 homolog 2, RRM domain, GST-SBP tag (RBFOX2, Homo sapiens, UniProt O43251-10, residues 100-194)
Setting: natural RNA segment, single round, ends assumed
Construct (chain): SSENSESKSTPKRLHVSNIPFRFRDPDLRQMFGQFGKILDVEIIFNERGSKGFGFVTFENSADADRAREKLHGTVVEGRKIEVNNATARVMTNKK
| Oligonucleotide | RBNS enrichment (R) |
| --- | --- |
| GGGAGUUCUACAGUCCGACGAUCAGGCCCUCCCGAGAGACCCAGUCACACGUCUCUGCUUUAAGCCUUAGCCAGCUAGUGACGAGUACAACGAGAUAACGCCCAUGUGUUUUGGAACAUUUAUGUAAGAUUGUUGGAAUUCUCGGGUGCCAA | 0.357 |
| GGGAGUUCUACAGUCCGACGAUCCCAUCUAGCAGCUGGCCUAAUCACUCUGAGUCACAGGUGUGGGAUGGAGAGUGGGGAGAGGCACUUAAUCUGUAACCCCCAAGGAGGAAAUAACUAAGAGAUUCUUCUAGUGGAAUUCUCGGGUGCCAA | 0.558 |
| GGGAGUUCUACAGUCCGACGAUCCUCGGACUUGUCGCCCCUUCCCAGCCCCCUCAGCGUGAUCCUCAGGGUCCUUGGUCUCUUCAGGCCCUGAGCGGGGUCAGGCACUGGGACGCCUUCCCCGCCCUCGAGGCUGGAAUUCUCGGGUGCCAA | 0.488 |
| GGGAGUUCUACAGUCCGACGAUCCCCUUCCCAGACUUGUGAUCCAUUCCCUGCAGCAAAGGAACACUGGAAGAAAGAUGGAGCUCCUCCACAGAGACAGAAAGAAACCACAGCAAGAAAACAGACCUCAAGUUUGGAAUUCUCGGGUGCCAA | 0.564 |
| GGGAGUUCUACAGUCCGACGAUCGCUGACUGGAUCCACUCAUCAAUUCUUCGUCCCCACUACUAAGACUGGGCAUGUUUUGCUGGUGUGGUCUCUGCACUUCAGGAAUGGUCACAACAGGGGGUAGCCCUCAAUGGAAUUCUCGGGUGCCAA | 1.97 |
| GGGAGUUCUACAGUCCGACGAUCUUUUGUAGAUGACUGAAGUAUUGUAAGGCGCAGUCAGGAGCUCUGGACUCGAGAACGGCAGAAAGGAGUAGUGCAGAGAGAUGAUUAAGCAAACUCUCCCAGCUCUGUGAUGGAAUUCUCGGGUGCCAA | 0.49 |
| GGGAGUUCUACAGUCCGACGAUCCACCCCCACGGCUCUCCUGGUUGAGGAGGGAGGGGCCUGGCUGACCCCUCCAGCUUCAGCCUCCAGCUUUAACUUCUGUCUGCUCCUAAUGGGGGCCCAAAGCUCAGGGCUGGAAUUCUCGGGUGCCAA | 0.306 |
| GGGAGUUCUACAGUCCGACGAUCGUGGGGGUCCUGGUGCAGGCAGUGAACAGGCUUCUAAUGUGGGGUUCAGUAGUGCCAGCAAGUGGGGGAAACUUUCAGUAUUGCGCUAGGUCAACACUUCCUGCUGCAUUUGGAAUUCUCGGGUGCCAA | 0.496 |

Sample 5 — technique: DHFR PCA, deep sequencing; sample: yeast; added: (+)-ABA 200 µM; relative to: wild-type fitted maximum; reading: higher = stronger binding
Target: ABI1, truncated, D143A, DHFR fusion (Arabidopsis thaliana)
Setting: methotrexate growth selection, single substitutions
Starting sequence: PYL1, truncated, DHFR fusion (Arabidopsis thaliana); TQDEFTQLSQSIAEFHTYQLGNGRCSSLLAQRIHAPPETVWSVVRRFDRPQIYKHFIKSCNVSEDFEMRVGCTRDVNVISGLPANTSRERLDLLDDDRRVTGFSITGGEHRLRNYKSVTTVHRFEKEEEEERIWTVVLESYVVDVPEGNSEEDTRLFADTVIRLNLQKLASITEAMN
| Substitution | relative binding score |
| --- | --- |
| F15E | 59.2% |
| T101D | 3.78% |
| T173M | 86.9% |
| E174A | 94.5% |
| V70W | 42.1% |
| R49N | 97.5% |
| R69C | 103% |
| D3I | 95.6% |
| Y18P | 101% |
| S117G | 57.2% |
| E151V | 97.8% |
| L20I | 102% |
| T73C | 107% |
| A84N | 30.7% |

Excerpt of the above (sample 3):
| Substitution | normalised enrichment score |
| --- | --- |
| P10I | 0.406 |
| P10L | 0.614 |
| D12W | 0.604 |
| P1C | 0.317 |
| V11Y | 0.666 |
